Published values collected from several papers.
Numbered parts are unrelated; each lists some results of a single study. Positions count from the first letter of the parent shown.
Sequence of UniProt P41143 (whole entry, looked up): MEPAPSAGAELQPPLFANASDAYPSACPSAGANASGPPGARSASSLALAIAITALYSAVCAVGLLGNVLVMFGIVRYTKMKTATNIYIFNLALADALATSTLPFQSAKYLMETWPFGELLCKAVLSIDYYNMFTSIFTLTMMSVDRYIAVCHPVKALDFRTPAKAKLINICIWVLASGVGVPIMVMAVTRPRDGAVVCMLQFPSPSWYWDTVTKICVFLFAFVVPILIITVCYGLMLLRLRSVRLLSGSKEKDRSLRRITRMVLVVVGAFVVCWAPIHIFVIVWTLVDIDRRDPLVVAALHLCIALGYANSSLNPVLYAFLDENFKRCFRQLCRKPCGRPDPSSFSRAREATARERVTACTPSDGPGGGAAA

Series 1
Target: Histone acetyltransferase KAT6A, winged helix 2, GST fusion (KAT6A, Homo sapiens, UniProt Q92794, residues 85-181)
Technique: protein binding microarray
Form: double-stranded DNA, one strand shown
Sample: in vitro
Concentration: not given
Setting: 8-mer, flanks averaged, mean of 2 arrays, mostly near background
Relative to: not given
Reading: higher = stronger binding
Construct (chain): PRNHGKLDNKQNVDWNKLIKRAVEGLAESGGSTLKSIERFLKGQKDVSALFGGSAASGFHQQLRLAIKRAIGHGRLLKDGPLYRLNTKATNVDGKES
Oligonucleotide	E-score
CACTGTAC	-0.287
ATCAAAGC	0.0689
AAACGGTC	-0.114
GGTCCACA	-0.173
CCTATGAG	-0.147
AGTGACGG	0.0795
CGCAACTA	0.0254
AAGATGAG	-0.093

Series 2
Target: CCND3, cyclin fold, Cln2 fusion (human)
Technique: yeast growth competition, sequencing
Sample: yeast
Setting: weak parent motif
Relative to: not given
Reading: higher = stronger binding
Starting sequence: viral docking peptide; KGVKRKLFAEDSS; partner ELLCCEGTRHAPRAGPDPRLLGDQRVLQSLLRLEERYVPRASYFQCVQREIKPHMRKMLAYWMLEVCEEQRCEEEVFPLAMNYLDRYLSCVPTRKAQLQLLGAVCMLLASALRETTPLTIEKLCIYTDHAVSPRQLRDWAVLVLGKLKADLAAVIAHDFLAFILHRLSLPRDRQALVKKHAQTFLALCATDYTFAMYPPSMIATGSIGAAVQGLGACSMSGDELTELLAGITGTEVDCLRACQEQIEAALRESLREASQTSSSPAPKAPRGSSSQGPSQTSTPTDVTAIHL
Variant	normalised enrichment score
L7A	0.195
K4F	-0.0301
D11E	-0.0617
V3M	-0.147
R5I	0.116
L7Q	0.372
L7T	0.325
K4W	-0.657
K6Y	0.0602
S12E	-0.304
K6E	0.121
E10F	0.15
G2V	0.489
E10L	0.693
D11M	-0.148
V3F	0.396
R5P	0.111

Series 3
Target: vanadate, free oxyanion
Technique: microfluidic competitive inhibition
Sample: in vitro, cell-free expressed
Concentration: not given
Setting: derived from inhibition constants, unchanged parent 676 nM
Reading: lower = stronger binding
Starting sequence: PafA, mature enzyme, eGFP fusion (Elizabethkingia meningoseptica, UniProt Q9KJX5); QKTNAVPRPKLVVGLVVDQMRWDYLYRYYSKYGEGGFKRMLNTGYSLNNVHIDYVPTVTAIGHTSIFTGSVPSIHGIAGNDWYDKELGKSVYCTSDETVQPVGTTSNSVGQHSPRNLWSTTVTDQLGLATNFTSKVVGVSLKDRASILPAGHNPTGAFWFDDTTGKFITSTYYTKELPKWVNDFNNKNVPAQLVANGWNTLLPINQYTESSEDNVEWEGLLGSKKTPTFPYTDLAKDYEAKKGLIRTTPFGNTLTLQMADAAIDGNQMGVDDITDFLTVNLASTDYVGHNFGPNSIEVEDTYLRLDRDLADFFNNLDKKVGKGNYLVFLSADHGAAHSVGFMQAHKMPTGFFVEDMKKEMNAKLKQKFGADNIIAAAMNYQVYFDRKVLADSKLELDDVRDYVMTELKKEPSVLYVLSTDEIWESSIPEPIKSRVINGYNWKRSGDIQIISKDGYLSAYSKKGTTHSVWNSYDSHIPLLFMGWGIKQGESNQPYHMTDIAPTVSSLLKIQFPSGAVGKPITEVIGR
Variant	oxyanion analog dissociation constant
F229G	596 nM
N4V	667 nM
N4G	625 nM
D398V	1.1 µM

Series 4
SMILES: O=C(NCc1ncc(C(F)(F)F)cc1Cl)c1ccc2c(c1)C1(CCS(=O)(=O)CC1)[C@H](C1CC1)N2S(=O)(=O)c1ccc(F)cc1
Concentration: 10 µM
target	assay	inhibition
Delta-type opioid receptor (OPRD1, Homo sapiens, UniProt P41143)	ligand displacement	-0.34%
D(1B) dopamine receptor (DRD5, Homo sapiens, UniProt P21918)	ligand displacement	19.1%
Sodium-dependent serotonin transporter (SLC6A4, Homo sapiens, UniProt P31645)	cell-free assay	-5.4%

Single results of other studies
Technique: cross-linking MS
Molecule	partner	test system	conditions	endpoint	value
GTF3C1 (Homo sapiens, UniProt Q12789)	MCM8 (Homo sapiens, UniProt Q9UJA3)	cell fractions	with: DSSO	cross-linked residues	K1636 to K79
NGDN (Homo sapiens, UniProt Q8NEJ9)	AATF (Homo sapiens, UniProt Q9NY61)	–	hits only	interaction screen	cross-linked
IGF2BP3 (Homo sapiens, UniProt O00425)	IGF2BP1 (Homo sapiens, UniProt Q9NZI8)	–	hits only	interaction screen	cross-linked
FLNA (Homo sapiens, UniProt P21333)	AFG2A (Homo sapiens, UniProt Q8NB90)	cell fractions	with: DSSO	cross-linked residues	K771 to Y184

Excerpt of the above (series 1):
Oligonucleotide	E-score
CCTATGAG	-0.147
AAGATGAG	-0.093
ATCAAAGC	0.0689
AAACGGTC	-0.114
CGCAACTA	0.0254
GGTCCACA	-0.173
